# Measurements collected from several papers.
# A part holds a random share of what one study measured. ± marks the error that the study gave.
# UniProt Q13263, sequence (whole entry, unmodified, looked up): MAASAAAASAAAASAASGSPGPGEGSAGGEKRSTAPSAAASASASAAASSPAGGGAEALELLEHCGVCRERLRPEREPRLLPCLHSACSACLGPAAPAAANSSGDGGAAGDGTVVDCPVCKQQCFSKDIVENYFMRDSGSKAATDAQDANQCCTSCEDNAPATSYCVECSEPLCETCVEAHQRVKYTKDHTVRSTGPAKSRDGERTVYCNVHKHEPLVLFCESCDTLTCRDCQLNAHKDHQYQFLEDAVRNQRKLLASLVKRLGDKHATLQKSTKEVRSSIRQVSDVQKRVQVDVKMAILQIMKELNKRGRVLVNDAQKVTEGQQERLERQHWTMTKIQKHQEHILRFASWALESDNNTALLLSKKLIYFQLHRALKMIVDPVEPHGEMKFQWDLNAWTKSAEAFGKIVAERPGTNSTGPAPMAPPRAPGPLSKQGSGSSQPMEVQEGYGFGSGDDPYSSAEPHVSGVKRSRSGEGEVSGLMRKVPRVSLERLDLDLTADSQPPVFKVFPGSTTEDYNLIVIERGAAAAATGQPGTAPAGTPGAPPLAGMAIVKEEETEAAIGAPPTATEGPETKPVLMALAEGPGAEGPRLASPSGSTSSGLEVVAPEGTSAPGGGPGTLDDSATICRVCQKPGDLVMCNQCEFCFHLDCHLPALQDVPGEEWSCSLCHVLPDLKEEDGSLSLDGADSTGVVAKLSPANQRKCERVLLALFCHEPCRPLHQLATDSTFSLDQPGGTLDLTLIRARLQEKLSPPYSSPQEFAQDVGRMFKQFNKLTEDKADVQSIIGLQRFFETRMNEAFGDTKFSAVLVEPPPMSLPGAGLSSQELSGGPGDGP
# UniProt P34913, sequence (whole entry, looked up): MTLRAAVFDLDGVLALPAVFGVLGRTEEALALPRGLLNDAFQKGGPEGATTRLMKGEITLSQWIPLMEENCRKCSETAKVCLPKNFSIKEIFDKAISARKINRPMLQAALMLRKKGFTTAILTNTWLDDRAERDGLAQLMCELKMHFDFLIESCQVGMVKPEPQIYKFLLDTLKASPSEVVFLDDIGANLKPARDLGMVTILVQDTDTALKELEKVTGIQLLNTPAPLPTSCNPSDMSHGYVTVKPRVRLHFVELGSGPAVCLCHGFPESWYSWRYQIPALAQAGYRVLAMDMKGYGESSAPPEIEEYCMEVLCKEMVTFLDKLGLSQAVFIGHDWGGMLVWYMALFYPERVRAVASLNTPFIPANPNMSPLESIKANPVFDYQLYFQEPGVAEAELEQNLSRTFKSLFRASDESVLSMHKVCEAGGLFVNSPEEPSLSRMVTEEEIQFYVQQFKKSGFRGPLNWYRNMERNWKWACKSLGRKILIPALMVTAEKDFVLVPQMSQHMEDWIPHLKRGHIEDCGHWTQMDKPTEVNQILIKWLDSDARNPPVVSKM

# Set 1
# Structure (SMILES): Cc1cc(OCc2nnc(SC3CCCC3)n2-c2cccnc2)ccc1-c1ccc(S(C)(=O)=O)cc1
cell line,GI50 [µM]
ACHN,1.11
MDA-MB-231,1.31
M14,1.44

# Further values, each from its own experiment
SMILES,tested on,test,system,setting,measurement,value
CC[C@@H]1C(=O)N(C)c2cnc(Nc3ccc(C(=O)NC4CCN(C)CC4)cc3OC)nc2N1C1CCCC1,"TRIM28 (Homo sapiens, UniProt Q13263)","thermal stabilisation, thermal shift",,10 µM,ΔTm,-0.6 ± 0.39 °C
Cc1ccccc1S(=O)(=O)Nc1c(N2CCC(NC(=O)Nc3ccc(OC(F)(F)F)c(F)c3)CC2)c(=O)c1=O,"EPHX2 (Homo sapiens, UniProt P34913)",,,,IC50,0.0293 ± 0.0023 µM
N#Cc1ccc(-c2csc(CNC(=O)C34CC(CN(C(=O)COCCF)C3)C4)n2)cc1,,,"Sprague Dawley rats male, plasma","oral, 3 mg/kg",AUC,14 µM·h

# Excerpt of the above (set 1):
cell line,GI50 [µM]
ACHN,1.11
